Results pooled from the literature.
Each numbered part is a random draw from the data of one study; scales do not carry over between parts. Positions count from the first letter of the parent shown.

Study 1 — technique: protein-binding microarray; molecule type: double-stranded DNA, one strand shown; matrix: in vitro; concentration: 940 nM top; setting: 60-bp whole probe; together with: salmon DNA 0.4 mg/ml; baseline: random background probes; direction: higher = stronger binding; quantity: fitted relative affinity; all sequences stand within: GCCTAGCAC … GTCTTGATTCGCTTGACGCTGCTG
Target: Interferon regulatory factor 5, full length, phosphomimetic (IRF5, Homo sapiens, UniProt Q13568-2, residues 1-514, S451D/S453D/S456D/S462D)
TTAGGACGGGACTTTCGGTTAGTGCTA: 3.02 z-score
TTAGGTTTCGTTCTCCTTTAGTGCTAG: 10.8 z-score
ATAGGACTGGGGTTTCGGTTAGTGCTA: 5.63 z-score
GACGGTCTCGTTTTCGGGACGTGCTAG: 2.09 z-score
GACGGTTTCGCGTATCGGGACGTGCTA: 4.6 z-score

Study 2 — target: CCNA1, cyclin fold, Cln2 fusion (human); technique: yeast growth competition, sequencing; matrix: yeast; setting: weak parent motif; baseline: not given; direction: higher = stronger binding; quantity: normalised enrichment score
Starting sequence: ORC1 docking peptide (human); PRARKRLELGNLG; partner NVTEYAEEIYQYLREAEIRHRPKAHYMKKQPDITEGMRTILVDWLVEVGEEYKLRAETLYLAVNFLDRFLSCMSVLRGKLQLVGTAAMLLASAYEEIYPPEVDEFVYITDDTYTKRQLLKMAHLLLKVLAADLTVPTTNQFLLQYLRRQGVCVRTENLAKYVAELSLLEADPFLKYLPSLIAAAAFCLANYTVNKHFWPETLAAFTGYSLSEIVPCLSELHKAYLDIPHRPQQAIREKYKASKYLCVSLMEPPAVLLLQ
PRARKDLELGNLG [R6D]: 0.402
PRARKRLEDGNLG [L9D]: 0.226
PRARRRLELGNLG [K5R]: 0.874
RRARKRLELGNLG [P1R]: 0.422
PRARKRLEHGNLG [L9H]: 0.48
IRARKRLELGNLG [P1I]: 0.608
PRARWRLELGNLG [K5W]: -0.155
PRARKRLELGNCG [L12C]: 0.334

Study 3 — technique: protein binding microarray; molecule type: double-stranded DNA, one strand shown; matrix: in vitro; concentration: not given; baseline: not given; direction: higher = stronger binding; quantity: E-score
Target: Histone acetyltransferase KAT6A, both winged helices, GST fusion (KAT6A, Homo sapiens, UniProt Q92794, residues 1-181)
Setting: 8-mer, flanks averaged, mean of 2 arrays, mostly near background
Construct (chain): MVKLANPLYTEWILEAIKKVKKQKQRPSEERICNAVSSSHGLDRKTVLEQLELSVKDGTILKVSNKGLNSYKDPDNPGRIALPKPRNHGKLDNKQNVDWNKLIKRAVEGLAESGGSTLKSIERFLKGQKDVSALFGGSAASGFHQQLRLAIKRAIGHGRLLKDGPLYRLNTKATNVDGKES
CAAGTGCA: -0.183
CTTACTCC: -0.0834
AGAATGTA: -0.0293
GAATCATA: -0.0894
CTCTCGGA: -0.0802

Further values, each from its own experiment
PhoQ, residues 284 288 289 292 302 303 ASSHFY  fold induction (PhoP, residues 12 14 15 18 19 AGCRL (Escherichia coli, UniProt P23836); Sort-seq, item: YFP reporter; E. coli; PhoQ-PhoP variant library, together with: 10 µM Mg2+; baseline: high Mg2+ state, higher = stronger signaling): 3.94
